Published values gathered from unrelated publications.
Every numbered part comes from another study and shows a few of its results, in no order. Substitutions count along the parent as printed.

Set 1
Target: NFE2L1, bZIP domain (human)
Method: DHFR protein complementation
Matrix: yeast
Notes: single substitutions, most at no-binding floor
Baseline: wild-type JUN-FOS pair
Reading: higher = stronger binding
Measurement: binding fitness
Starting sequence: JUN, bZIP domain (human); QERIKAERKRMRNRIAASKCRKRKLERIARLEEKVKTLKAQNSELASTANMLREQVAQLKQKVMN; partner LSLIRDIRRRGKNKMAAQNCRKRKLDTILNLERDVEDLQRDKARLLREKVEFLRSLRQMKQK
M51L: -1.5 natural log
A57V: -1.53 natural log
Q55V: -1.51 natural log
I28C: -1.46 natural log

Set 2
Target: CCNB1, cyclin fold, Cln2 fusion (human)
Method: yeast growth competition, sequencing
Matrix: yeast
Notes: strong parent motif
Baseline: not given
Reading: higher = stronger binding
Measurement: normalised enrichment score
Starting sequence: MASTL docking peptide (human); PMIAKNLMCELDE; partner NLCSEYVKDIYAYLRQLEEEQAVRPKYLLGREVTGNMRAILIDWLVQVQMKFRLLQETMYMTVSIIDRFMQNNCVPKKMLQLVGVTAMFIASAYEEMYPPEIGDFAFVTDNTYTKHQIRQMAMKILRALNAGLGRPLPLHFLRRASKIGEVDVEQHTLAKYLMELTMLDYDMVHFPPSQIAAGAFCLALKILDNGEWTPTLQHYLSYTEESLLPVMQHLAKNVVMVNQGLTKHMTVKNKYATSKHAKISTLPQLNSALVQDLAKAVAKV
PMIAKNLMCELWE [D12W]: 0.222
PMMAKNLMCELDE [I3M]: 0.148
PMIAKWLMCELDE [N6W]: -0.103
PMCAKNLMCELDE [I3C]: 0.929
PMIAKNFMCELDE [L7F]: -0.0945

Set 3
Target: RING finger protein unkempt homolog, zinc fingers 1-6, GST-SBP tag (UNK, Homo sapiens, UniProt Q9C0B0, residues 30-357)
Sequence of UniProt Q9C0B0 (30-357, looked up): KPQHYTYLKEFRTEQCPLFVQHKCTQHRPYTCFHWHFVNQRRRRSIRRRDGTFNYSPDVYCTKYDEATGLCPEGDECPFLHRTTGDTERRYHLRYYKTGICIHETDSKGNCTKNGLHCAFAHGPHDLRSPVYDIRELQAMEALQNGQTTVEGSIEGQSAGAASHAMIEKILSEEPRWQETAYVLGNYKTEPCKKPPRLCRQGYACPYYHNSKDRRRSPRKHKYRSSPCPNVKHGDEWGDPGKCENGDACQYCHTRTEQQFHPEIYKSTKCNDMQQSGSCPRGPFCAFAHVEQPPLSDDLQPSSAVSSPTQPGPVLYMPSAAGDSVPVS
Method: RNA Bind-n-Seq
Form: RNA
Matrix: in vitro
Tested at: not given
Notes: RNA with constant flanks, human-mouse chimeric sites, ends assumed
Baseline: input RNA pool
Reading: higher = stronger binding
Measurement: bound/input enrichment
Shared flanks, not repeated: GGGAGUUCUACAGUCCGACGAUC … CAACAGAGGAUUGAGCAUCA
AAUGUGGAGUUGAGUUCGCUGGCCCGGCUUCCCAGCUUGAAUAAACUCCGGAAGUUGGAACUUAGUGACAAUAUAAUUUCUGGAGGCUUGGAAGUCCUGGCAGAGAAAUGUCCAAAUCUU: 0.407 ratio
CACGUGUCUGCAGUACUUGAUGUGGACUACUCUCCCACUGGGAAGGAAUUUGUGUCUGCCAGCUUUGAUAAGUCUAUUAGAAUCUUUCCUGUAGACAAGAGCCGAAGCAGGGAGGUAUAU: 0.316 ratio
CUGGCCUGGCCCUCCCCAGGGGCCUCCUUUCGUAUAGUCACUGCUUCUGCAUCAGAUACUUUCAGCUCCAAGUCCUGACUGGGUGGGGCACCCAUUUCAGGCAGAAGGUUUUGGUACCCU: 0.294 ratio
GAUCAUGAACCACCAUCAGAAAUGAAGAUGAGAUUACCCAGACGAGCCCAAAACCGCGCGCUACAGAAAAAGUAAACUAACCUUGCAGAGUUCCUUAAUGAAGAUACAAGUUAAGAGAGC: 0.208 ratio
UCAGGAACCCAGACAAACAUGAAUGUAAAUGAAGUCAUUAGCAAUAGAGCAAUUGAAAUGUUAGGAGGUGAACUUGGCAGCAAGAUACCUGUGCACCCCAAUGAUCAUGUUAACAAAAGC: 0.867 ratio

Mixed results
PhoQ, residues 284 288 289 292 302 303 SASVAL
fold induction (PhoP, residues 12 14 15 18 19 NNFVT (Escherichia coli, UniProt P23836); Sort-seq, item: YFP reporter; E. coli; PhoQ-PhoP variant library, with: 10 µM Mg2+; baseline: high Mg2+ state, higher = stronger signaling): 1.7

Excerpt of the above (set 1):
A57V: -1.53 natural log
Q55V: -1.51 natural log
